Measurements from different studies.
Every numbered part comes from another study and shows a few of its results, in no order.

Sample 1
Target: chymotrypsin
Read-out: enzyme activity
Action: inhibitor
Concentration: 10 µM
Notes: with DTT
Measurement: inhibition
Compound = Sc1nnnn1-c1ccccc1; value = 4.5%
Compound = O=C(O)c1ccccc1-c1c2cc(Br)c(=O)cc-2oc2[c]([Hg][OH])c(O)c(Br)cc12; value = 10.5%
Compound = C[C@@H](CN1CC(=O)NC(=O)C1)N1CC(=O)NC(=O)C1; value = 3.5%
Compound = N[C@@H](Cc1ccc(O)c(O)c1)C(=O)O; value = 9.2%
Compound = COC(=O)C1=C(C)NC(C)=C(C(=O)OC)C1c1ccccc1[N+](=O)[O-]; value = 7.7%
Compound = Cc1ccc(C)c(-n2sc3cc(F)ccc3c2=O)c1; value = -0.5%
Compound = Cc1ccc(C(=O)n2nc(-c3cccnc3)nc2N)cc1; value = 103%
Compound = COc1ccnc(C[S+]([O-])c2nc3ccc(OC(F)F)cc3[nH]2)c1OC (centres unmarked); value = 8.3%
Compound = CCOC(=O)c1c(N)sc(-c2ccccc2)c1C; value = 5.8%
Compound = CC1(C)C(/C=C/C=C/C=C/C=C2\N(CCCCS(=O)(=O)[O-])c3ccc4ccccc4c3C2(C)C)=[N+](CCCCS(=O)(=O)[O-])c2ccc3ccccc3c21.[Na+]; value = 6.1%
Compound = O=C1C(Cl)=C(Cl)C(=O)C(Cl)=C1Cl; value = 10.1%

Sample 2
Organism: Vesicular stomatitis virus
Read-out: pseudovirus infection
Technique: FDA-approved drug library screen
Concentration: concentration not given
Notes: VSV-G control pseudotype
Relative to: vehicle
Measurement: GFP-positive cells
SMILES = CCO.C[C@H]1c2cccc(O)c2C(O)=C2C(=O)[C@]3(O)C(O)=C(C(N)=O)C(=O)[C@@H](N(C)C)[C@@H]3[C@@H](O)[C@@H]21.C[C@H]1c2cccc(O)c2C(O)=C2C(=O)[C@]3(O)C(O)=C(C(N)=O)C(=O)[C@@H](N(C)C)[C@@H]3[C@@H](O)[C@@H]21.Cl.Cl.O; value = 88.5%
SMILES = Cc1ccc(/C(=C\CN2CCCC2)c2ccccn2)cc1.Cl; value = 103%
SMILES = Cc1cc(C2CCCCC2)n(O)c(=O)c1.NCCO; value = 56.3%
SMILES = Nc1nc2[nH]cc(CCc3ccc(C(=O)N[C@@H](CCC(=O)O)C(=O)O)cc3)c2c(=O)[nH]1; value = 119%
SMILES = CNC(=C[N+](=O)[O-])NCCSCc1ccc(CN(C)C)o1; value = 97.5%
SMILES = CC[C@H](C)[C@H](N)C1=N[C@H](C(=O)N[C@@H](CC(C)C)C(=O)N[C@H](CCC(=O)O)C(=O)N[C@H](C(=O)N[C@H]2CCCCNC(=O)[C@H](CC(N)=O)NC(=O)[C@@H](CC(=O)O)NC(=O)[C@H](Cc3cnc[nH]3)NC(=O)[C@@H](Cc3ccccc3)NC(=O)[C@H]([C@@H](C)CC)NC(=O)[C@@H](CCCN)NC2=O)[C@@H](C)CC)CS1; value = 122%
SMILES = O=[As]O[As]=O (centres unmarked); value = 105%
SMILES = N.N.[Cl][Pt][Cl]; value = 101%

Sample 3
Cell line: mouse MPNST tumor cells
Technique: high-content nuclear imaging
Refers to: cell number
Concentration: 10 µM
Time: 12 h
Notes: mean of 2 replicates
Relative to: plate mean
Direction: higher = more cells
Measurement: nuclei count
SMILES = CN1CC[C@]2(c3cccc(O)c3)Cc3nc4ccccc4cc3C[C@H]2C1; value = 5.46 z-score
SMILES = CC(=O)NCCCOc1ccc(C(=O)N2CCC(N3C(=O)CCc4ccccc43)CC2)cc1; value = 1.1 z-score
SMILES = COc1cc2c(cc1F)C(c1ccccc1Cl)=Nc1c(n[nH]c1C)N2; value = -0.273 z-score
SMILES = c1ccc(C2CC2)c(OCC2=NCCN2)c1; value = 1.88 z-score
SMILES = CN[C@@H]1C[C@@H](c2ccc(Cl)c(Cl)c2)c2ccccc21; value = -4.76 z-score
SMILES = CC(C)CC(N(C)C)C1(c2ccc(Cl)cc2)CCC1 (centres unmarked); value = 0.443 z-score
SMILES = CN(C)C(=O)Oc1cc(OC(=O)N(C)C)cc(C(O)CNC(C)(C)C)c1 (centres unmarked); value = 0.603 z-score
SMILES = CCOC(=O)Nc1ccc(NCc2c(C)cc(C)cc2C)cc1N; value = -5.06 z-score

Sample 4
Target: Kappa-type opioid receptor (OPRK1, Homo sapiens, UniProt P41145)
UniProt P41145, sequence (whole entry, looked up): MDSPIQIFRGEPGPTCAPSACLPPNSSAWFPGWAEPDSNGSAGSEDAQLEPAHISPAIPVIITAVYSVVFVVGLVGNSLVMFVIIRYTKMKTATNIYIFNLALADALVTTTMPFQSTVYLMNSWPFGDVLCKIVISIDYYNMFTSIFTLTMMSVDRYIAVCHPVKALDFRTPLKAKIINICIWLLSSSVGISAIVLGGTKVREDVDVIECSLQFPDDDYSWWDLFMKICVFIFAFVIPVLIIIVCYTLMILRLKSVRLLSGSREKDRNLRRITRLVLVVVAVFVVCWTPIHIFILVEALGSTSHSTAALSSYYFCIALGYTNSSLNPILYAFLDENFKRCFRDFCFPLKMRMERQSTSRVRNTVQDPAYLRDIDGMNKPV
Read-out: binding
Technique: radioligand binding
Concentration: 10 µM
Measurement: inhibition
SMILES = Cc1c[nH]c2nccc(Oc3c(F)cc(Nc4cc(Cl)nc(N)n4)cc3F)c12; value = 64.6%
SMILES = CCOCCn1cc(C(=O)Nc2ccc(-n3nc(-c4cccnc4)cc3C(F)(F)F)cn2)ccc1=O; value = 3.2%
SMILES = O=C1c2ccc(Nc3ccc(F)cc3F)cc2CCc2ccc(OC[C@H](O)CO)cc21; value = -4%
SMILES = CC1=C(C#N)[C@@H](c2ccc3[nH]nc(C)c3c2)C(C#N)=C(c2ccc(Cl)cc2)N1; value = -16%
SMILES = CC(=O)Nc1nc(CN2CCC[C@H](Cc3cc(C)nc(C)c3)C2)cs1; value = 17.9%
SMILES = C[C@@]1(Cc2ccc(C#N)cc2)C(=O)N(c2cc(Cl)cc(Cl)c2)c2ncc(C(=O)NC3(c4nc(C5CCC5)no4)CC3)n21; value = 12.6%
SMILES = CS(=O)(=O)NCC[C@H](NC(=O)c1cncc2c1cnn2-c1ccc(F)cc1)c1ccnc(S(C)(=O)=O)c1; value = 0.74%
SMILES = Cc1cc(-n2nc(Cc3cc(F)cc(C(F)(F)F)c3)nc2C)ccc1C(N)=O; value = 16%
